# Results gathered from unrelated publications.
# Compare with care: the assays were run in different laboratories. Values joined by “and” are separate records of one study, mostly repeats; a detail may differ.
# UniProt Q62868, sequence (whole entry, looked up): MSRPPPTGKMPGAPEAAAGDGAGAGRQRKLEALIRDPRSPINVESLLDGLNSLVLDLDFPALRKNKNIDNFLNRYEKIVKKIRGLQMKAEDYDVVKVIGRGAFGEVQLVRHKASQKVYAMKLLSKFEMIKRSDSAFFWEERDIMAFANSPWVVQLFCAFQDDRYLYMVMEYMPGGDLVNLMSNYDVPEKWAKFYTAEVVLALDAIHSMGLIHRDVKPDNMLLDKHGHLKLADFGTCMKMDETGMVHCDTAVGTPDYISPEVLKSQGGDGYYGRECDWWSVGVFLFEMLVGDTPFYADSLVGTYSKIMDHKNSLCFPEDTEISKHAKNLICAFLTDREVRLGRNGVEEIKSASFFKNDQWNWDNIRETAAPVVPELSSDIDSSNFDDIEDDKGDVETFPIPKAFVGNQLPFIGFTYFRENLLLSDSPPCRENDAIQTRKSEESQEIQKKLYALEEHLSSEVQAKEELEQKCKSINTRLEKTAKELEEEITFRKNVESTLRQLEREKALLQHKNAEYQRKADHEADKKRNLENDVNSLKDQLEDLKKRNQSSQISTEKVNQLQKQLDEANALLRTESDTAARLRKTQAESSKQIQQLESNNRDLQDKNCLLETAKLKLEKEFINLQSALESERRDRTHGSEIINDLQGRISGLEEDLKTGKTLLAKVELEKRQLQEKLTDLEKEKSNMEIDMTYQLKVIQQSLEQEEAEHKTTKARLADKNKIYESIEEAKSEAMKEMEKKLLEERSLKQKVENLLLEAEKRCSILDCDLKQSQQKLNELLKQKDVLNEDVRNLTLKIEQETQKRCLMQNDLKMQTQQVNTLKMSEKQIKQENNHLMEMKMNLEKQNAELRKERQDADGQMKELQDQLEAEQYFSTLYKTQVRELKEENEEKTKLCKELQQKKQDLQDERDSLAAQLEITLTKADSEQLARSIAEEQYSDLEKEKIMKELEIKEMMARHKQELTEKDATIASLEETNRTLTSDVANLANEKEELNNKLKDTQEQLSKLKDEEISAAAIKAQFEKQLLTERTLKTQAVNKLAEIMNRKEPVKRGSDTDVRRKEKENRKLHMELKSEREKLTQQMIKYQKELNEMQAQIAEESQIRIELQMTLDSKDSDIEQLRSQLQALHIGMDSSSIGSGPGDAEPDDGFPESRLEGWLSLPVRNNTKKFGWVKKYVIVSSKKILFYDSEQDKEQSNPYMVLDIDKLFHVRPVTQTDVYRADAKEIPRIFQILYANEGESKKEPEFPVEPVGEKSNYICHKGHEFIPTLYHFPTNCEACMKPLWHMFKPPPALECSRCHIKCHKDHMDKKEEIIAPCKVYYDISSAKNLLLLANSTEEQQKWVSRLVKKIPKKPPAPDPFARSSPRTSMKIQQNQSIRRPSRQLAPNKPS
Structure (SMILES),tested on,test,system,conditions,measurement,result
CC(C)(C)[Si](C)(C)OCCN(c1ccc(F)cc1)c1c(-c2ccccn2)nc2ccccn12,Leishmania infantum,parasite growth,,"intracellular, amastigote",IC50,2.07 µM
COc1ccc2[nH]c3c4[nH]c5ccc(OC)cc5c4c4c(c3c2c1)C(=O)NC4=O,Trypanosoma brucei,parasite growth,,,EC50,0.631 µM
Cc1ccn2cc(-c3ccccn3)nc2c1,Leishmania infantum,parasite growth,,"intracellular, amastigote",EC50,20 µM
Cc1cc(C)c(C#N)c(SCC(=O)Nc2ccccc2)n1,Leishmania infantum,parasite growth,mouse Macrophage,"intracellular, amastigote",EC50,> 64 µM
CCCN1CCC(Oc2cc(Nc3nc(Nc4cccc(F)c4C(N)=O)c4cc[nH]c4n3)c(OC)cc2Cl)CC1,Trypanosoma brucei,parasite growth,,,EC50,0.316 µM
CC(C)[C@H](N)C(=O)N[C@H](Cc1ccccc1)C(=O)N[C@@H](Cc1ccccc1)C(=O)N[C@H](CCCN)C(=O)N[C@H](C(=O)N[C@H](CCCNC(=N)N)C(=O)O)[C@@H](C)O,Balamuthia mandrillaris,"parasite growth, ATP luminescence",,,IC90,> 20 µM
CN(c1ccc(F)cc1)c1c(-c2ccccn2)nc2ccccn12,Leishmania infantum,parasite growth,,"intracellular, amastigote",IC50,1.49 µM and 0.57 µM
CC[C@H]1OC(=O)[C@H](C)[C@@H](O[C@H]2C[C@@](C)(OC)[C@@H](O)[C@H](C)O2)[C@H](C)[C@@H](O[C@@H]2O[C@H](C)C[C@H](N(C)C)[C@H]2O)[C@](C)(OC)C[C@@H](C)C(=O)[C@H](C)[C@@H](O)[C@]1(C)O,Helicobacter pylori,"microbial growth, broth dilution",,3.9 µg/mL,inhibition,100%
Fc1ccc(Nc2c(-c3ccccn3)nc3cccnn23)cc1,Leishmania infantum,parasite growth,,"intracellular, amastigote",IC50,9.51 µM and 22.3 µM
COc1cc(-c2cc(=O)c3c(O)cc(O)cc3o2)ccc1O,Helicobacter pylori,"microbial growth, broth dilution",,125 µg/mL,inhibition,100%
CCc1ccc(C(=O)CSc2nc(C)cc(C)c2C#N)cc1,Trypanosoma brucei,"parasite growth, resazurin",RHODESIENSE,,EC50,55.1 µM
CN(Cc1ccc(C(C)(C)C)cc1)Cc1cccc2ccccc12,Trichophyton mentagrophytes,"microbial growth, disc diffusion",ATCC18748,"0.00025 µg/mL, 72 h",inhibition zone,0 mm
CC1(C)CC[C@]2(NC(=O)N3CCC[C@H]3C(=O)O)CC[C@]3(C)C(=CC[C@@H]4[C@@]5(C)CC[C@@H]6OC(C)(C)OC[C@@]6(C)[C@@H]5CC[C@]43C)[C@@H]2C1,Leishmania mexicana,"parasite growth, resazurin",,"50 µM, amastigote",inhibition,96%
COc1cc([C@H]2OC[C@H]3[C@@H]2CO[C@@H]3c2cc(OC)c(O)c(OC)c2)cc(OC)c1O,Helicobacter pylori,"microbial growth, broth dilution",,0.98 µg/mL,inhibition,100%
CC1(C)CC[C@]2(C(=O)O)CC[C@]3(C)C(=CC[C@@H]4[C@@]5(C)CC[C@@H]6O[C@H]([C@H](O)[C@@H](O)[C@H](O)CO)OC[C@@]6(C)[C@@H]5CC[C@]43C)[C@@H]2C1,Leishmania mexicana,"parasite growth, resazurin",,"50 µM, amastigote",inhibition,98.9%
COc1ccc(-c2nc3ccc(OC)cn3c2N(C)c2ccc(F)cc2)nc1,Leishmania infantum,parasite growth,,"intracellular, amastigote",IC50,0.79 µM
CN(Cc1ccc(C2(C(F)(F)F)CC2)cc1)Cc1cccc2ccccc12,Trichophyton mentagrophytes,"microbial growth, disc diffusion",ATCC18748,"0.016 µg/mL, 72 h",inhibition zone,34 mm
CC1(C)CC[C@]2(C(=O)O)CC[C@]3(C)C(=CC[C@@H]4[C@@]5(C)CC[C@@H]6O[C@H](C[C@H]7O[C@H](CO)[C@H](O)[C@H](O)[C@H]7O)OC[C@@]6(C)[C@@H]5CC[C@]43C)[C@@H]2C1,Leishmania mexicana,"parasite growth, resazurin",,"50 µM, amastigote",inhibition,98.1%
Cc1[nH]c(C(=O)Nc2ccc(C(=O)NCC(=O)O)cc2N2CC[C@H](N)C2)c(Cl)c1Cl.Cl,Klebsiella aerogenes,"microbial growth, broth dilution",ATCC13408,,MIC,> 32 µg/mL
O=C1O[C@H]2[C@@H]3OC(=O)c4cc(O)c(O)c(O)c4-c4c(O)c(O)c5oc(=O)c6c(c(O)c(O)c7oc(=O)c4c5c76)-c4c(cc(O)c(O)c4O)C(=O)OC[C@H]3OC(O)[C@@H]2OC(=O)c2cc(O)c(O)c(O)c2-c2c1cc(O)c(O)c2O (mixture of isomers),Streptococcus mutans,"microbial growth, disc diffusion",,500 µg/disc,inhibition zone,18.5 mm
CC(C)[C@@H]1NC(=O)[C@@H](Cc2c[nH]cn2)NC(=O)[C@H]([C@@H](C)O)NC(=O)[C@@H](CCCN)NC(=O)[C@H](Cc2ccccc2)NC(=O)[C@@H](Cc2ccccc2)NC1=O,Balamuthia mandrillaris,"parasite growth, ATP luminescence",,,IC90,13.1 µM
CN(c1ccc(F)cc1)c1c(-c2cccc(F)n2)nc2ccccn12,Leishmania infantum,parasite growth,,"intracellular, amastigote",EC50,10 µM
COC(=O)[C@]12CCC(C)(C)C[C@H]1C1=CC[C@@H]3[C@@]4(C)CC[C@@H]5O[C@H](c6ccccc6C(=O)O)OC[C@@]5(C)[C@@H]4CC[C@@]3(C)[C@]1(C)CC2,Leishmania mexicana,"parasite growth, resazurin",,"50 µM, amastigote",inhibition,100%
C=C[C@@]1(C)C=C2CC[C@@H]3[C@](C)(CCC[C@@]3(C)C(=O)O)[C@H]2CC1,Helicobacter pylori,"microbial growth, broth dilution",,7.81 µg/mL,inhibition,71%
COc1cc(-c2cncc3c2CN(C)Cc2cc(N4CCNCC4)ccc2-3)cc(OC)c1OC,"Rock2 (Rattus norvegicus, UniProt Q62868)","enzyme activity, inhibitor",,1 µM,remaining activity,92%
C[C@@H]1O[C@@H](O[C@H]2[C@H](O[C@H]3CC[C@@]4(C)[C@@H](CC[C@]5(C)[C@@H]4CC=C4[C@@H]6CC(C)(C)CC[C@]6(C(=O)O)CC[C@]45C)[C@]3(C)CO)OC[C@H](O)[C@@H]2O)[C@H](O)[C@H](O)[C@H]1O,Leishmania mexicana,"parasite growth, resazurin",,"50 µM, amastigote",inhibition,95.1%
CCN(CC)Cc1ccc(Nc2nccc(-c3cnn4ncccc34)n2)cc1,Trypanosoma brucei,parasite growth,,,EC50,0.0316 µM
COC(=O)[C@H](Cc1c[nH]cn1)NC(=O)N[C@]12CCC(C)(C)C[C@H]1C1=CC[C@@H]3[C@@]4(C)CC[C@@H]5OC(C)(C)OC[C@@]5(C)[C@@H]4CC[C@@]3(C)[C@]1(C)CC2,Leishmania mexicana,"parasite growth, resazurin",,"50 µM, amastigote",inhibition,98%
Cc1cc(C)c(C#N)c(SCC(=O)c2ccccc2)n1,Leishmania infantum,parasite growth,mouse Macrophage,"intracellular, amastigote",EC50,> 64 µM
COC(=O)c1ccc(O)cc1,Helicobacter pylori,"microbial growth, broth dilution",,0.24 µg/mL,inhibition,19.9%
CC1(C)S[C@@H]2[C@H](NC(=O)[C@H](N)c3ccccc3)C(=O)N2[C@H]1C(=O)O,Streptococcus viridans,microbial growth,,clinical isolate,MIC90,2 µg/mL
CC(C)[C@@H]1NC(=O)[C@@H](Cc2c[nH]c3ccccc23)NC(=O)[C@H]([C@@H](C)O)NC(=O)[C@@H](CCCCN)NC(=O)[C@H](Cc2ccccc2)NC(=O)[C@@H](Cc2ccccc2)NC1=O,Balamuthia mandrillaris,"parasite growth, ATP luminescence",,,IC90,> 20 µM
CC(=O)Oc1ccccc1C(=O)CSc1nc(C)cc(C)c1C#N,Trypanosoma brucei,"parasite growth, resazurin",RHODESIENSE,,EC50,39.2 µM
Fc1ccc(Nc2c(-c3ccccn3)nc3cccc(F)n23)cc1,Leishmania infantum,parasite growth,,"intracellular, amastigote",IC50,8.64 µM
CC(C)[C@@H]1NC(=O)[C@@H](CCCNC(=N)N)NC(=O)[C@H]([C@@H](C)O)NC(=O)[C@@H](CCCCN)NC(=O)[C@H](Cc2ccccc2)NC(=O)[C@@H](Cc2ccccc2)NC1=O,Balamuthia mandrillaris,"parasite growth, ATP luminescence",,72 h,IC50,≤ 5 µM
CCS(=O)(=O)Oc1ccc(C=NNC(=O)CSc2nc3ccc(Cl)cc3c(=O)n2-c2ccccc2)cc1,Salmonella enterica,"microbial growth, well diffusion",TYPHIMURIUM,20 µg/mL,inhibition zone,3 mm
COc1ccc2ncn(-c3cc(O[C@H](C)c4ccccc4C(F)(F)F)c(C(N)=O)s3)c2c1,Trypanosoma brucei,parasite growth,,,EC50,0.316 µM
CN1CCN(C(=O)[C@@H]2CCCN2C(=O)N[C@]23CCC(C)(C)C[C@H]2C2=CC[C@@H]4[C@@]5(C)CC[C@@H]6OC(C)(C)OC[C@@]6(C)[C@@H]5CC[C@@]4(C)[C@]2(C)CC3)CC1,Leishmania mexicana,"parasite growth, resazurin",,"50 µM, amastigote",inhibition,97.9%
Cc1cc(C)c(C#N)c(NCC(O)c2ccc(F)cc2)n1 (centres unmarked),Trypanosoma brucei,"parasite growth, resazurin",,,EC50,7.72 µM
C[C@H]1O[C@H](C[C@@H]2OC[C@@]3(C)[C@@H]4CC[C@]5(C)[C@H](CC=C6[C@@H]7CC(C)(C)CC[C@]7(C(=O)O)CC[C@]65C)[C@@]4(C)CC[C@@H]3O2)[C@H](O)[C@@H](O)[C@@H]1O,Leishmania mexicana,"parasite growth, resazurin",,"50 µM, amastigote",inhibition,100%
Cc1cc(C)c(C#N)c(SC2COc3ccccc3C2=O)n1 (centres unmarked),Leishmania infantum,parasite growth,mouse Macrophage,"intracellular, amastigote",EC50,37.3 µM
O=c1cc(-c2ccc(O)c(O)c2)oc2cc(O)cc(O)c12,Helicobacter pylori,"microbial growth, broth dilution",,125 µg/mL,inhibition,100%
Cc1cc(C)c(C#N)c(SCC(=O)c2ccncc2)n1,Trypanosoma brucei,"parasite growth, resazurin",,,EC50,> 64 µM
CN[C@H](CC(C)C)C(=O)N[C@H]1C(=O)N[C@@H](CC(N)=O)C(=O)N[C@H]2C(=O)N[C@H]3C(=O)N[C@H](C(=O)N[C@H](C(=O)O)c4cc(O)cc(O)c4-c4cc3ccc4O)[C@H](O)c3ccc(c(Cl)c3)Oc3cc2cc(c3O[C@@H]2O[C@H](CO)[C@@H](O)[C@H](O)[C@H]2O[C@H]2C[C@](C)(N)[C@H](O)[C@H](C)O2)Oc2ccc(cc2Cl)[C@H]1O,Streptococcus pneumoniae,microbial growth,,clinical isolate,MIC90,1 µg/mL
N#Cc1cccc(Nc2nccc(-c3cnn4ncccc34)n2)c1,Trypanosoma brucei,parasite growth,,,EC50,0.00794 µM
COc1ccc(-c2cc(=O)c3c(O)cc(O[C@@H]4O[C@H](CO)[C@@H](O)[C@H](O)[C@H]4O)cc3o2)cc1O,Helicobacter pylori,"microbial growth, broth dilution",,3.9 µg/mL,inhibition,100%
CC(C)[C@@H]1NC(=O)[C@@H](C)NC(=O)[C@H]([C@@H](C)O)NC(=O)[C@@H](CCCN)NC(=O)[C@H](Cc2ccccc2)NC(=O)[C@@H](Cc2ccccc2)NC1=O,Balamuthia mandrillaris,"parasite growth, ATP luminescence",,72 h,IC50,> 20 µM
Cc1cc(C)c(C#N)c(SC(C)C(=O)c2ccccc2)n1 (centres unmarked),Trypanosoma brucei,"parasite growth, resazurin",,,EC50,> 64 µM
CC(C)(C)OC(=O)N[C@@H]1CCN(c2cc(C(=O)NCC(=O)O)ccc2NC(=O)c2cc(Br)c(Br)[nH]2)C1,Klebsiella aerogenes,"microbial growth, broth dilution",ATCC13408,,MIC,> 32 µg/mL
Nc1ncnc2occ(-c3ccc(NC(=O)Nc4cc(C(F)(F)F)cc(C(F)(F)F)c4)cc3)c12,Trypanosoma brucei,parasite growth,,,EC50,2 µM
